{"data": "Assay results pooled from the literature", "note": "Every numbered part comes from another study and shows a few of its results, in no order. Changes are numbered by the printed parent chain."}
{"data": "Set 1", "target": "MAFG, bZIP domain (human)", "technique": "DHFR protein complementation", "matrix": "yeast", "notes": "single substitutions, most at no-binding floor", "reference": "wild-type JUN-FOS pair", "direction": "higher = stronger binding", "starting sequence": "JUN, bZIP domain (human); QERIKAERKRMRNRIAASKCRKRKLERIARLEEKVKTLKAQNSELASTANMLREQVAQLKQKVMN; partner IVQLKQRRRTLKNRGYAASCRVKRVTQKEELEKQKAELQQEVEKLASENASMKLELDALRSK"}
{"Substitution": "Q41K", "binding fitness [natural log]": -1.61}
{"Substitution": "N42G", "binding fitness [natural log]": -1.44}
{"Substitution": "L31R", "binding fitness [natural log]": -1.45}
{"Substitution": "N42R", "binding fitness [natural log]": -0.891}
{"Substitution": "A49M", "binding fitness [natural log]": -1.41}
{"Substitution": "V56P", "binding fitness [natural log]": -1.52}
{"Substitution": "N42W", "binding fitness [natural log]": -1.44}
{"Substitution": "L38W", "binding fitness [natural log]": -1.53}
{"Substitution": "R30N", "binding fitness [natural log]": -1.36}
{"Substitution": "T48D", "binding fitness [natural log]": -1.41}
{"Substitution": "T48H", "binding fitness [natural log]": -1.39}
{"data": "Set 2", "target": "Interferon regulatory factor 5, full length, phosphomimetic (IRF5, Homo sapiens, UniProt Q13568-2, residues 1-514, S451D/S453D/S456D/S462D)", "technique": "protein-binding microarray", "form": "double-stranded DNA, one strand shown", "matrix": "in vitro", "tested at": "940 nM top", "notes": "60-bp whole probe", "together with": "salmon DNA 0.4 mg/ml", "reference": "random background probes", "direction": "higher = stronger binding", "all sequences stand within": "GCCTAGCAC … GTCTTGATTCGCTTGACGCTGCTG"}
{"Strand": "TTATGTATCGGGACTGGGTTAGTGCTA", "fitted relative affinity [z-score]": 1.23}
{"Strand": "GACGATATCAGCCTCGAGACGTGCTAG", "fitted relative affinity [z-score]": -0.152}
{"Strand": "TCAGATCTGCCGTCCCACTCAGTGCTA", "fitted relative affinity [z-score]": 0.172}
{"Strand": "GACGGTTCCCTTATCCTGACGTGCTAG", "fitted relative affinity [z-score]": 0.465}
{"Strand": "GACGATATGGGGTATCGAGACGTGCTA", "fitted relative affinity [z-score]": 1.08}
{"Strand": "TTAGGAATGGACTTTCGGTTAGTGCTA", "fitted relative affinity [z-score]": 2.37}
{"Strand": "GATGGTATCGGTCTCGGGACGTGCTAG", "fitted relative affinity [z-score]": 9.72}
{"Strand": "GACGGTGTCCTTTTCCTGACGTGCTAG", "fitted relative affinity [z-score]": 0.305}
{"Strand": "TTTGGACTGGACTATCGGTTAGTGCTA", "fitted relative affinity [z-score]": -0.134}
{"Strand": "GACGGTCTTCTTATCCTGACGTGCTAG", "fitted relative affinity [z-score]": 0.369}
{"Strand": "GAAGATATCAGACTGGAGACGTGCTAG", "fitted relative affinity [z-score]": -0.44}
{"Strand": "TTAGGTATCGACTCTCGGTTAGTGCTA", "fitted relative affinity [z-score]": 5.95}
{"Strand": "AAGGTAGCACTTCACAGCAAGTGCTAG", "fitted relative affinity [z-score]": -0.0348}
{"Strand": "TTAGGTATCATTCTCCTTTAGTGCTAG", "fitted relative affinity [z-score]": 3.22}
{"Strand": "GACGGTTTCGGTCTCTGGACGTGCTAG", "fitted relative affinity [z-score]": 13.7}
{"Strand": "TTAGGACTGGACGCTGGGTTAGTGCTA", "fitted relative affinity [z-score]": -0.5}
{"data": "Set 3", "target": "ABI1, truncated, D143A, DHFR fusion (Arabidopsis thaliana)", "technique": "DHFR PCA, deep sequencing", "matrix": "yeast", "notes": "methotrexate growth selection, single substitutions", "together with": "(+)-ABA 200 µM", "reference": "wild-type fitted maximum", "direction": "higher = stronger binding", "starting sequence": "PYL1, truncated, DHFR fusion (Arabidopsis thaliana); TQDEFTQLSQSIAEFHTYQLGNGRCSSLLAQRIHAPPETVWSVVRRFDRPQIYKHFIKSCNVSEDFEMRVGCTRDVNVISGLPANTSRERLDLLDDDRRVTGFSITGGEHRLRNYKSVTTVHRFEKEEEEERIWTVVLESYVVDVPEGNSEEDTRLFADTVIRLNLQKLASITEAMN; partner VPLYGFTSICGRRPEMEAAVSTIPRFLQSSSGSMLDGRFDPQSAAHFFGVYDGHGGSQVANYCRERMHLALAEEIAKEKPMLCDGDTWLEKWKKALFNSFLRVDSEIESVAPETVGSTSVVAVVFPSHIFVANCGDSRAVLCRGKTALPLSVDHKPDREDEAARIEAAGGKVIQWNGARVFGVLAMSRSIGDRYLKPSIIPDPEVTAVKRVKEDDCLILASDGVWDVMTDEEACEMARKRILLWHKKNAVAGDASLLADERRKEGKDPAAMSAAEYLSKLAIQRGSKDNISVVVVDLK"}
{"Substitution": "L91R", "relative binding score": "27.5%"}
{"Substitution": "F56Q", "relative binding score": "27.1%"}
{"Substitution": "S117I", "relative binding score": "0.736%"}
{"Substitution": "V70F", "relative binding score": "60.9%"}
{"Substitution": "L93I", "relative binding score": "111%"}
{"Substitution": "V70D", "relative binding score": "71.2%"}
{"Substitution": "V137I", "relative binding score": "89.6%"}
{"data": "Single results of other studies"}
{"Substance": "PhoQ, residues 284 288 289 292 302 303 SACGEM", "target": "PhoP, residues 12 14 15 18 19 LHSVW (Escherichia coli, UniProt P23836)", "test": "Sort-seq, refers to: YFP reporter", "system": "E. coli", "conditions": "PhoQ-PhoP variant library, together with: 10 µM Mg2+", "how to read": "reference: high Mg2+ state, higher = stronger signaling", "endpoint": "fold induction", "result": 19.5}
